Experimental data of several laboratories.
Each numbered part is a random draw from the data of one study; scales do not carry over between parts.

Set 1
Target: Sal-like protein 4, full length isoform A (SALL4, Homo sapiens, UniProt Q9UJQ4, residues 1-1053)
UniProt Q9UJQ4, sequence (whole entry, looked up): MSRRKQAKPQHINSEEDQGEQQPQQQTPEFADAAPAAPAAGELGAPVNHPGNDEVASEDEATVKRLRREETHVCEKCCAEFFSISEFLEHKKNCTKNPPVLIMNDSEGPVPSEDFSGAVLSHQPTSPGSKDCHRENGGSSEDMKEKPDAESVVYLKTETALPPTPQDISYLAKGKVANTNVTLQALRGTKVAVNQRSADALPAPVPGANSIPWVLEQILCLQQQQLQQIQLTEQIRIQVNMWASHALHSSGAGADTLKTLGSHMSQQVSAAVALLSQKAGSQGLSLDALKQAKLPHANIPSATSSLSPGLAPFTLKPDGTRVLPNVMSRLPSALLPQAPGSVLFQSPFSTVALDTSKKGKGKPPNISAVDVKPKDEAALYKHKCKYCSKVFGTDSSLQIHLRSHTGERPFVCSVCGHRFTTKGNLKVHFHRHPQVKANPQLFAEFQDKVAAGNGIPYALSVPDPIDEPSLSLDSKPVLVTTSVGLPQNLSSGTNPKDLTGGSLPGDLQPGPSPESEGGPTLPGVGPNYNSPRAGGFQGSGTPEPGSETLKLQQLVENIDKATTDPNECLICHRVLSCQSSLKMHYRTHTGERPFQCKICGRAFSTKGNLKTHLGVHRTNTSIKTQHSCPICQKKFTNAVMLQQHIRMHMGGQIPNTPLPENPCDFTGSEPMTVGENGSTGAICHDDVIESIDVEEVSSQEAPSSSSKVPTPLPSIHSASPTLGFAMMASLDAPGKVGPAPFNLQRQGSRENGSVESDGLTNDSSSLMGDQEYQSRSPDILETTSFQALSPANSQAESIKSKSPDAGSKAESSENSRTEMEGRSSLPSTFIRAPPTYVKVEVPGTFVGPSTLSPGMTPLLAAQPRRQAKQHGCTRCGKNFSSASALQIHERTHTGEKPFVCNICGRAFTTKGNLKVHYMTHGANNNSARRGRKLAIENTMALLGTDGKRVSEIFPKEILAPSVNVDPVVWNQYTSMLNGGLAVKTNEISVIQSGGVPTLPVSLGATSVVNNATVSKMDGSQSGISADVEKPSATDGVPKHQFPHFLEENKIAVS
Technique: universal PBM
Molecule type: double-stranded DNA, one strand shown
Sample: in vitro
Tested at: 600 nM
Notes: 8-mer, flanks averaged, mean of replicates
Direction: higher = stronger binding
`ATGACTTC` has an E-score of 0.181.
For `ACGTTGCG`, the E-score was -0.0477.
The E-score of `AAACTAAT` is reported as 0.279.
For `TCTCCCCA`, the E-score was -0.187.
For `AATCCGTC`, the E-score was 0.0281.
`ACTTCCTA` gave an E-score of 0.0671.
The E-score of `AAATAGTA` is reported as 0.325.

Set 2
Target: Prothrombin, mature alpha-thrombin (F2, Homo sapiens, UniProt P00734)
Technique: aptamer microarray, sandwich
Molecule type: DNA with 2'F-ANA
Sample: in vitro
Tested at: 200 nM
Notes: whole 15-mer aptamer, many near background
Added: Cy3 exosite-II aptamer, 400 nM
Direction: higher = stronger binding
Sequence: GGTTGGTGTGGTTGG
Under “mean fluorescence intensity”, `2'F-ANA at 1 2 5 6 7 8 10 11 12 14 15` is recorded as 56 a.u.
`2'F-ANA at 2 3 5 6 8 10 11 12 14 15`: “mean fluorescence intensity” 59.1 a.u.
`2'F-ANA at 1 2 5 6 7 8 10 12 15`: “mean fluorescence intensity” 52.9 a.u.
Under “mean fluorescence intensity”, `2'F-ANA at 1 2 10 11 14` is recorded as 54.5 a.u.
`2'F-ANA at 1 4 5 6 7 13 15` — result for “mean fluorescence intensity”: 51.9 a.u.

Set 3
Target: Histone acetyltransferase KAT6A, winged helix 1, GST fusion (KAT6A, Homo sapiens, UniProt Q92794, residues 1-85)
Technique: protein binding microarray
Molecule type: double-stranded DNA, one strand shown
Sample: in vitro
Tested at: not given
Notes: 8-mer, flanks averaged, mean of 2 arrays, mostly near background
Reference: not given
Direction: higher = stronger binding
Construct (chain): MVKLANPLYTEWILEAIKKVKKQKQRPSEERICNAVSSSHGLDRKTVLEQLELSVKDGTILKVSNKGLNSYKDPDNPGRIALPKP
For `AGGCTTAC`, the E-score was 0.00215.
The E-score of `CAACTGCC` is reported as 0.106.
With `GGGGGCCA` the E-score was 0.147.
With `AGAGATTC` the E-score was -0.193.
`ACTTTGTA` has an E-score of -0.2.
The E-score of `AACTTGGG` is reported as -0.0948.
`GCACAAGC` has an E-score of -0.0509.
`ATAGCAGC` gave an E-score of -0.194.
The E-score of `CCCGTCAA` is reported as 0.293.
The E-score of `CCTTCGTC` is reported as -0.171.

Other studies, line by line
`PhoQ, residues 284 288 289 292 302 303 SIHLQL` gave a fold induction of 14.5 (PhoP, residues 12 14 15 18 19 LHHSG (Escherichia coli, UniProt P23836); Sort-seq, measured: YFP reporter; E. coli; PhoQ-PhoP variant library, added: 10 µM Mg2+; reference: high Mg2+ state, higher = stronger signaling).

Some of these lines once more (set 2):
`2'F-ANA at 2 3 5 6 8 10 11 12 14 15`: “mean fluorescence intensity” 59.1 a.u.
`2'F-ANA at 1 4 5 6 7 13 15` — result for “mean fluorescence intensity”: 51.9 a.u.
